Published values from different studies.
Each numbered part is a random draw from the data of one study; scales do not carry over between parts. Changes are numbered by the printed parent chain.

Study 1 — target: tungstate, free oxyanion; technique: microfluidic competitive inhibition; sample: in vitro, cell-free expressed; concentration: not given; direction: lower = stronger binding
Setting: derived from inhibition constants, unchanged parent 2230 nM
Starting sequence: PafA, mature enzyme, eGFP fusion (Elizabethkingia meningoseptica, UniProt Q9KJX5); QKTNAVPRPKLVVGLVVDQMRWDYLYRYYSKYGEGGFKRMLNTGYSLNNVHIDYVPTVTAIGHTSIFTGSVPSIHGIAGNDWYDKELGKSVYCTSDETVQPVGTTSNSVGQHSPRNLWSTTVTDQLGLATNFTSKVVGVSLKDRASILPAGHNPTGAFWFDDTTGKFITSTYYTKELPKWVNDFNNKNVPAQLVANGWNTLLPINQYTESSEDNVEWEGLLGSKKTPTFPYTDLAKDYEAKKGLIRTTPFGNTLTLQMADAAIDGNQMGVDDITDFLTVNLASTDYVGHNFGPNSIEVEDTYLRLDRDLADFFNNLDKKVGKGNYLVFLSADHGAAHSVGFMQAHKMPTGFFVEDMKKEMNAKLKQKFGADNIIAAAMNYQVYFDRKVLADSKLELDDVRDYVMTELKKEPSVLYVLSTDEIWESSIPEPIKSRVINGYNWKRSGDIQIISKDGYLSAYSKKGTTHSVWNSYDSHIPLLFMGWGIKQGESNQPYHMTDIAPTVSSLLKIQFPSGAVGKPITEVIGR
For `E239V`, “oxyanion analog dissociation constant” read 2060 nM.
`E395G` — result for “oxyanion analog dissociation constant”: 1920 nM.
`P430V` — result for “oxyanion analog dissociation constant”: 2110 nM.

Study 2 — technique: RNA Bind-n-Seq; form: RNA; sample: in vitro; concentration: 365 nM; relative to: no-protein control; direction: higher = stronger binding
Target: RNA binding protein fox-1 homolog 2, RRM domain, GST-SBP tag (RBFOX2, Homo sapiens, UniProt O43251-10, residues 100-194)
Setting: natural RNA segment, single round, ends assumed
Shared flanks, not repeated: GGGAGUUCUACAGUCCGACGAUC … UGGAAUUCUCGGGUGCCAA
Under “RBNS enrichment (R)”, `GUUCAGACGCAGACGAAGACCAACAUUGUUUUAUAUGUUGAAUUUAUAAAAUGCUAGUAAUUUAGAACCCUCCCCCCAAAUCAAGGAGGCAAAAAAUAACGCACUAGUCA` is recorded as 0.388.
`AUAGUUAAAGUAGACACGGCCUCCCACGCGAGUGUGGUGGGACCUUGAGACUUAGGAGGAUUGCCUGUUUUCAGUGUCCAGGGAAUGACUCCAUAGAUUUGAAUUCUUUU` — result for “RBNS enrichment (R)”: 1.11.
For `UUGUGAGAAACCUCUUUUCUUUAAAAUUUACAUAAUCACAAGAAAGGAAAGAAUUACAGUUGGACUGAUUGUGACAGUGCCUUGUCGUCCUCUUUGAAACACCCCGUGUU`, “RBNS enrichment (R)” read 0.499.
For `GUCUGGCUGCGGGGAAGGGGCAAGAAGGCGGGCAGGCCUUCACUGCAGCACUGAGCCUCAAAUCCGCUCUGGAGCAUGAGGCUGGAUGCAGUGGUGGUGAGGCCGCCCCG`, “RBNS enrichment (R)” read 0.419.
`AGAGCUUGCUCCAGAUUCUGAUGCAUACGGCUAUAUUGGUUUAUGUAGUCAGUUGCAUUCAUUAAAUCAACUUUAUCAUAUGCUCUUUUAAAUGUUUGGUUUAUAUAUUU`: “RBNS enrichment (R)” 0.613.
For `GAGGAUCAGAAAGAUACCCCAGCUCCAUCAUAGUUUGAGUCAUGUUUCUAUGCCACUUUGGUCCCCAACCAAAGUGAAUCUGUCCCAUGUUAGGCACUCCUCUGACCUGA`, “RBNS enrichment (R)” read 0.557.
Under “RBNS enrichment (R)”, `CUUUCCGUAGAUAUGCCGAUGGUAAUUAUCUUUUCUUUUGGCUUAAUCCGAUUUGGUUUGGUUUUUCCCUUUCCCUGGAUUCUUUCCUACCUUCUUCAGGCUGUCAAGCA` is recorded as 0.591.
Under “RBNS enrichment (R)”, `GUUGAUGCAUUUUUGUACUUAGCUGUACUGUGUGAUAUUUUUCAUUAUUUUAGGAUGCCAACAUGAGACCUGUAAUAAAAUAUGUAAUGGGGUUGAAGGCUGGGGAGGAG` is recorded as 1.12.

Study 3 — target: CCND2, cyclin fold, Cln2 fusion (human); technique: yeast growth competition, sequencing; sample: yeast; setting: weak parent motif; relative to: not given; direction: higher = stronger binding; starting sequence: viral docking peptide; TSVRRALFTGGSD
`R5I`: “normalised enrichment score” 0.151.
`L7P` — result for “normalised enrichment score”: -0.0498.
`A6S` — result for “normalised enrichment score”: -0.246.
`G10D` — result for “normalised enrichment score”: -0.0518.
`G11L` — result for “normalised enrichment score”: -0.072.
Under “normalised enrichment score”, `V3L` is recorded as 0.175.
For `R5G`, “normalised enrichment score” read 0.0741.
`G11F`: “normalised enrichment score” 0.184.
`G10L` — result for “normalised enrichment score”: -0.0348.
For `R5F`, “normalised enrichment score” read -0.279.
`S2T` — result for “normalised enrichment score”: 0.221.
Under “normalised enrichment score”, `L7E` is recorded as 0.0629.
For `S12I`, “normalised enrichment score” read -0.0166.
`G10I` — result for “normalised enrichment score”: 0.22.
For `F8C`, “normalised enrichment score” read -0.296.
`S12W`: “normalised enrichment score” -0.25.

Study 4 — technique: competition protein-binding microarray; form: double-stranded DNA, one strand shown; sample: in vitro; concentration: 2 µM; together with: Pho4 competitor, 0.05 µM; direction: higher = stronger binding; shared flanks, not repeated: … GTCTTGATTCGCTTGACGCTGCTG
Target: Centromere-binding protein 1, full length, His-tagged (CBF1, Saccharomyces cerevisiae, UniProt P17106, residues 1-351)
Sequence of UniProt P17106 (whole entry, looked up): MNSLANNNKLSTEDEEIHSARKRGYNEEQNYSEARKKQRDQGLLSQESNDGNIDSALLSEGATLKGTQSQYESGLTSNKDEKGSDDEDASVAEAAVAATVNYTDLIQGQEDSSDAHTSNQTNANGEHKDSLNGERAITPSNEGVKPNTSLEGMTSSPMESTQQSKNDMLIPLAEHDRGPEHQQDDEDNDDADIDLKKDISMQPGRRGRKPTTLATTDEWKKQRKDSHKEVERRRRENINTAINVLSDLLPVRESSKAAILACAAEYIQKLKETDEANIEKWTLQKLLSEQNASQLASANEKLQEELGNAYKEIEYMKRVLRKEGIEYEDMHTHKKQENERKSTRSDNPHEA
Setting: whole 60-bp probe, lowest competitor level
`TCCGCGATCGCCGGCCACGGGCCGTCGGCGGCTGTT` has a fluorescence intensity of 53.1 a.u.
`AAAAAGATGCACCATCACGTGCTAAAAATCTAACAT` gave a fluorescence intensity of 4730 a.u.
For `ATCCCAATACAATTTAACGTGGGACCACCTACCATG`, the fluorescence intensity was 76.4 a.u.
`AAATTACTAAGTTGTCACTGAACTTACCCCGTATGA` gave a fluorescence intensity of 71 a.u.
`CTCGTTCAGACGAGTCACGTCGGTAGCCAGACCGGT` gave a fluorescence intensity of 105 a.u.
The fluorescence intensity of `CTTTTAGGAATCCATCACGTGATGGGGATATCTACG` is reported as 14300 a.u.
With `TGCTTATGGAGGTCCCACGTGCTTTTATCCGACAGC` the fluorescence intensity was 1030 a.u.
The fluorescence intensity of `CTTCTGTAAATTTGGGCGGTGGGTGGACGCGCCCCG` is reported as 71.5 a.u.

Repeated from above (study 3):
For `R5G`, “normalised enrichment score” read 0.0741.
Under “normalised enrichment score”, `V3L` is recorded as 0.175.
`L7P` — result for “normalised enrichment score”: -0.0498.
`G11F`: “normalised enrichment score” 0.184.
`G10I` — result for “normalised enrichment score”: 0.22.
